{"data": "Published values gathered from unrelated publications", "note": "Each numbered part is a random draw from the data of one study; scales do not carry over between parts. Values joined by “and” are separate records of one study, mostly repeats; a detail may differ."}
{"data": "Study 1", "target": "Replicase polyprotein 1ab, main protease (rep, Severe acute respiratory syndrome coronavirus 2, UniProt P0DTD1)", "effect on": "enzyme activity", "mode": "inhibitor", "tested at": "20 µM", "setting": "primary screen"}
{"SMILES": "c1cc[n+]2c(c1)[S][Zn]1([O]2)[O][n+]2ccccc2[S]1", "inhibition [%]": 99.7}
{"SMILES": "O=S(=O)(O)c1cc(I)c(O)c2ncccc12", "inhibition [%]": 27.7}
{"SMILES": "NC[C@H](O)c1ccc(O)c(O)c1", "inhibition [%]": 54}
{"data": "Study 2", "target": "Replicase polyprotein 1ab, nsp13 helicase (rep, Severe acute respiratory syndrome coronavirus 2, UniProt P0DTD1)", "mode": "inhibitor", "tested at": "20 µM"}
{"Structure (SMILES)": "Cc1ncccc1OC[C@@H]1CCCN1", "inhibition [%]": -2.61}
{"Structure (SMILES)": "CCCCC1OC(=O)c2ccccc21 (centres unmarked)", "inhibition [%]": 12.4}
{"Structure (SMILES)": "O=C(O)c1ccc2[nH]cc(CCCCN3CC=C(c4ccccc4)CC3)c2c1", "inhibition [%]": 7.92}
{"Structure (SMILES)": "CN1CCCCC1Cn1cc(C(=O)c2cc([N+](=O)[O-])ccc2I)c2ccccc21 (centres unmarked)", "inhibition [%]": 6.1}
{"Structure (SMILES)": "C[C@@H](NCCc1ccc(O)cc1)[C@@H](O)c1ccc(O)cc1 (racemic)", "inhibition [%]": 2.69}
{"Structure (SMILES)": "CO[C@H]1CC[C@H](N(c2cc(C3=CCCCC3)sc2C(=O)O)C(=O)[C@H]2CC[C@H](C)CC2)CC1", "inhibition [%]": 73.7}
{"Structure (SMILES)": "CN1CC[C@@]2(C)c3cc(O)ccc3N(C)[C@@H]12", "inhibition [%]": 26.3}
{"Structure (SMILES)": "Oc1nc(O)c2nc(O)[nH]c2n1", "inhibition [%]": -6.87}
{"Structure (SMILES)": "C#C[C@]1(O)CC[C@H]2[C@@H]3CCC4=CC(=O)CC[C@]4(C)[C@H]3CC[C@@]21C", "inhibition [%]": -2.32}
{"Structure (SMILES)": "CCCC(CCC)C(=O)NCC(N)=O", "inhibition [%]": -10.5}
{"Structure (SMILES)": "Nc1ncn([C@H]2C[C@H](O)[C@@H](CO)O2)c(=O)n1", "inhibition [%]": -3.65}
{"Structure (SMILES)": "COc1cc(O)c2c(c1)C(=O)c1cc(C)cc(O)c1C2=O", "inhibition [%]": 38.4}
{"Structure (SMILES)": "CO/N=C(\\C(=O)N[C@@H]1C(=O)N2C(C(=O)OC(C)OC(C)=O)=C(COC(N)=O)CS[C@H]12)c1ccco1 (some centres unmarked)", "inhibition [%]": 2.75}
{"Structure (SMILES)": "CCCN1C[C@H](CSC)C[C@@H]2c3cccc4[nH]cc(c34)C[C@H]21", "inhibition [%]": -3.53}
{"Structure (SMILES)": "O=C1CN2Cc3c(ccc(Cl)c3Cl)N=C2N1", "inhibition [%]": 1.21}
{"Structure (SMILES)": "NC(=O)NS(=O)(=O)c1ccc(N)cc1", "inhibition [%]": 4.13}
{"Structure (SMILES)": "CN(C)CC[C@@]1(c2ccc(Cl)cc2)Cc2ccccc2C(=O)O1 (racemic)", "inhibition [%]": -0.19}
{"Structure (SMILES)": "CC(=O)OC[C@H]1O[C@@](COC(C)=O)(O[C@H]2O[C@H](COC(C)=O)[C@@H](OC(C)=O)[C@H](OC(C)=O)[C@H]2OC(C)=O)[C@@H](OC(C)=O)[C@@H]1OC(C)=O", "inhibition [%]": 0.96}
{"Structure (SMILES)": "CCCCc1nn(-c2ccccc2C(F)(F)F)c(=O)n1Cc1ccc(-c2ccccc2S(=O)(=O)NC(=O)c2sccc2C)cc1", "inhibition [%]": 10.9}
{"data": "Study 3", "cell line": "HEK-293T-ACE2", "tested at": "concentration not given", "relative to": "vehicle"}
{"SMILES": "CCCCC(O)c1ccccc1 (centres unmarked)", "cell number [%]": 99}
{"SMILES": "Nc1nc2[nH]cc(CCc3ccc(C(=O)N[C@@H](CCC(=O)O)C(=O)O)cc3)c2c(=O)[nH]1", "cell number [%]": 94.8}
{"SMILES": "COc1c(-c2ccc3cc(NS(C)(=O)=O)ccc3c2)cc(-n2ccc(=O)[nH]c2=O)cc1C(C)(C)C", "cell number [%]": 102}
{"data": "Other studies, line by line", "rep main protease": "Replicase polyprotein 1ab, main protease (rep, Severe acute respiratory syndrome coronavirus 2, UniProt P0DTD1)"}
{"Substance": "Nc1ncnc2c([C@@H]3N[C@H](CO)[C@@H](O)[C@H]3O)c[nH]c12", "tested on": "Venezuelan equine encephalitis virus", "test": "viral replication", "test system": "HeLa, SH3", "setting": "6.3 µM", "endpoint": "inhibition", "result": "0.1%"}
{"Substance": "CCC(CC)COC(=O)[C@H](C)N[P@](=O)(OC[C@H]1O[C@@](C#N)(c2ccc3c(N)ncnn23)[C@H](O)[C@@H]1O)Oc1ccccc1", "tested on": "SARS-CoV-2", "test": "viral replication", "test system": "Huh-7-ACE2, USA-WA1/2020", "setting": "24 h", "endpoint": "EC50", "result": "2.6 nM"}
{"Substance": "COc1ccc(N2CCN(CCCNC(=O)c3cc(Nc4ccc(OC)cc4OC)nc4ccccc34)CC2)cc1", "tested on": "SARS-CoV-2", "test": "cytopathic effect", "test system": "USA_WA1/2020", "setting": "retest, 8-point, duplicates", "endpoint": "maximum response", "result": "51.7%"}
{"Substance": "Cn1cnc(Cn2c(=O)[nH]/c(=N\\c3cc4cn(C)nc4cc3Cl)n(Cc3cc(F)c(F)cc3F)c2=O)n1", "test system": "human, normal renal function", "setting": "oral, 375 mg", "endpoint": "any TEAE, Moderate severity", "result": "0%"}
{"Substance": "Env SOSIP.v4.1 gp120/gp41 (HIV-1)", "tested on": "itself", "test": "native gel and SEC", "endpoint": "subunits per oligomer", "result": 3}
{"Substance": "O=C(NC[C@@H]1CC2(CCOCC2)CN1C(=O)C1=Cc2ccccc2OC1)c1cncnc1", "tested on": "rep main protease", "test": "enzyme activity, inhibitor", "setting": "5 µM, mean of runs", "endpoint": "inhibition", "result": "11.2%"}
{"Substance": "LEMELTPVV", "test": "AIM", "test system": "peptide, CD8+ T cells from PBMC, human donors", "setting": "HLA-B*40:01 restricted, unit not given", "scale": "relative to: positive over tested donors", "endpoint": "frequency of responding donors", "result": 50}
{"Substance": "CCOc1ccc(NC(=O)c2cnn(-c3ccc(C)c(Cl)c3)c2C2CCNCC2)cc1", "tested on": "SARS-CoV-2", "test": "cytopathic effect", "test system": "USA_WA1/2020", "setting": "retest, 8-point, duplicates", "endpoint": "maximum response", "result": "33.9%"}
{"Substance": "CNC(=O)[C@@H](NC(=O)[C@H](CC(C)C)[C@H](O)C(=O)NO)C(C)(C)C", "tested on": "Daboia russelii venom proteases (SVMP)", "test": "protease activity, inhibitor", "test system": "MH population", "setting": "0.001 µM, added: azocasein substrate", "scale": "relative to: venom alone", "endpoint": "remaining activity", "result": "99.3% and 98.5% and 96.1%"}
{"Substance": "CC[C@H](C)[C@H](NC(=O)[C@H](CC(C)C)NC(=O)[C@H](Cc1c[nH]c2ccccc12)NC(=O)[C@H](CCC(N)=O)NC(=O)[C@@H](NC(=O)[C@H](Cc1ccccc1)NC(=O)[C@H](C)NC(=O)[C@H](CCCCNC(=O)COCCOCCNC(=O)COCCOCCNC(=O)CC[C@H](NC(=O)CCCCCCCCCCCCCCCCCCC(=O)O)C(=O)O)NC(=O)[C@H](CCC(N)=O)NC(=O)[C@H](C)NC(=O)[C@@H](NC(=O)[C@H](CCCCN)NC(=O)[C@H](CC(=O)O)NC(=O)[C@H](CC(C)C)NC(=O)C(C)(C)NC(=O)[C@@H](NC(=O)[C@H](CO)NC(=O)[C@H](Cc1ccc(O)cc1)NC(=O)[C@H](CC(=O)O)NC(=O)[C@H](CO)NC(=O)[C@@H](NC(=O)[C@H](Cc1ccccc1)NC(=O)[C@@H](NC(=O)CNC(=O)[C@H](CCC(=O)O)NC(=O)C(C)(C)NC(=O)[C@@H](N)Cc1ccc(O)cc1)[C@@H](C)O)[C@@H](C)O)[C@@H](C)CC)[C@@H](C)CC)C(C)C)C(=O)N[C@@H](C)C(=O)NCC(=O)NCC(=O)N1CCC[C@H]1C(=O)N[C@@H](CO)C(=O)N[C@@H](CO)C(=O)NCC(=O)N[C@@H](C)C(=O)N1CCC[C@H]1C(=O)N1CCC[C@H]1C(=O)N1CCC[C@H]1C(=O)N[C@@H](CO)C(N)=O", "test system": "healthy subjects, single ascending dose", "setting": "5.0 mg, day 29", "scale": "relative to: baseline", "endpoint": "pulse rate change", "result": "-1.72 bpm"}
{"Substance": "O=C(NC[C@@H]1Cc2ccccc2CN1C(=O)c1noc2c1CCCC2)c1cn[nH]c(=O)c1", "tested on": "rep main protease", "test": "enzyme activity, inhibitor", "setting": "5 µM, run 2", "endpoint": "inhibition", "result": "17.5%"}
{"Substance": "SASFSTFKCYGVSPT", "tested on": "human CD4 T cells", "test": "AIM", "test system": "peptide", "endpoint": "responding donors", "result": "8%"}
{"Substance": "RNCRAPRKK", "tested on": "HLA class I histocompatibility antigen, A alpha chain (Homo sapiens, UniProt P04439)", "test": "iTopia binding", "test system": "peptide", "setting": "11 µM, 18 h, 21 °C", "scale": "relative to: positive control", "endpoint": "peptide binding", "result": "62.1%"}
{"note": "Some of these lines once more (other studies, line by line):"}
{"Substance": "CCOc1ccc(NC(=O)c2cnn(-c3ccc(C)c(Cl)c3)c2C2CCNCC2)cc1", "tested on": "SARS-CoV-2", "test": "cytopathic effect", "test system": "USA_WA1/2020", "setting": "retest, 8-point, duplicates", "endpoint": "maximum response", "result": "33.9%"}
{"Substance": "CCC(CC)COC(=O)[C@H](C)N[P@](=O)(OC[C@H]1O[C@@](C#N)(c2ccc3c(N)ncnn23)[C@H](O)[C@@H]1O)Oc1ccccc1", "tested on": "SARS-CoV-2", "test": "viral replication", "test system": "Huh-7-ACE2, USA-WA1/2020", "setting": "24 h", "endpoint": "EC50", "result": "2.6 nM"}
